Measured values of several laboratories.
Protocols differ between the studies behind these lines.
Medium: plasma

| Structure (SMILES) | system | setting | endpoint | value |
| --- | --- | --- | --- | --- |
| Cc1cccc(Cn2ncc3c4cc(F)c(CN(C)C)cc4n(C)c3c2=O)n1 | Sprague-Dawley rat | oral, 10 mg/kg | CL/F | 57.4 mL/min/kg |
| CCC1(CC)CC(=O)N(C2c3cc(C(=O)NC4c5ccccc5CC4O)ccc3OC2(C)COC)C(=N)N1 (stereo not shown) | male Wistar rat | intravenous | clearance | 60.4 mL/min/kg |
| N#Cc1ccnc(N2C(=O)CC[C@H]2C(=O)N(c2cc(F)cc(F)c2)[C@H](C(=O)NC2CC(F)(F)C2)c2ccccc2Cl)c1 (stereo in doubt) | Sprague-Dawley rat | intravenous, 1 mg/kg | clearance | 7.5 mL/min/kg |
| O=C(C1CCN(c2nnnn2-c2ccccc2)CC1)N1CCCc2ccccc21 | male Sprague-Dawley rat | intravenous, 1 mg/kg | clearance | 32.7 mL/min/kg |
| COc1cc(OC)c2c(=O)cc(-c3cc(C)c(OCCCN4CCN(C)CC4)c(C)c3)oc2c1 | male Sprague-Dawley rat | intravenous, 10 mg/kg, single dose | clearance | 38.3 mL/min/kg |
| O=c1c(-c2ccc(Cl)c(CN3CCOCC3)c2)coc2cc(O)ccc12 | male Sprague-Dawley rat | intravenous, 2 mg/kg | clearance | 56.6 mL/min/kg |
| CCC(CC)n1c(Cc2ccco2)nc2cc(C(=O)N[C@@H](CC(=O)O)c3ccccc3)ccc21 | male Sprague-Dawley rat | intravenous, 1 mg/kg | clearance | 20.8 mL/min/kg |
| CN1CCC[C@@H]1C(=O)N[C@@H](Cc1ccc(-c2ccccc2)cc1)B(O)O | male Sprague-Dawley rat | intravenous, 1 mg/kg | clearance | 20 mL/min/kg |
| OC1(C(F)(F)F)CCN(c2nc(Nc3ccnc(C(F)(F)F)c3)nc(-c3cccc(C(F)(F)F)n3)n2)C1 (stereo not shown) | Sprague-Dawley rat | intravenous, 1 mg/kg | clearance | 14.1 mL/min/kg |
| COC1C(c2ccc(Cl)c(Cc3ccc(OC4CCOC4)cc3)c2)OC(CO)C(O)C1O (stereo not shown) | Sprague-Dawley rat | intravenous, 2.5 mg/kg | clearance | 10.4 mL/min/kg |
| C/C(N)=N/C(=N\S(=O)(=O)c1ccc(C(F)(F)F)cc1)N1C[C@H](c2ccccc2)C(c2ccc(Cl)cc2)=N1 | male Sprague-Dawley rat | intravenous, 2 mg/kg | clearance | 12.1 mL/min/kg |
| CCCN(C)c1cc(C(F)(F)F)nc(SCCC(=O)NCc2ccco2)n1 | male Wistar rat | intraperitoneal, 25 mg/kg, single dose | CL/F | 0.144 mL/min/kg |
| COC(=O)C1=CNC=C(C(=O)OC)C1c1ccc(F)c(C(F)(F)F)c1 | male Sprague-Dawley rat | intravenous, 5 mg/kg | clearance | 104 mL/min/kg |

Some of these lines once more:
| Structure (SMILES) | system | setting | endpoint | value |
| --- | --- | --- | --- | --- |
| COC1C(c2ccc(Cl)c(Cc3ccc(OC4CCOC4)cc3)c2)OC(CO)C(O)C1O (stereo not shown) | Sprague-Dawley rat | intravenous, 2.5 mg/kg | clearance | 10.4 mL/min/kg |
| CCC(CC)n1c(Cc2ccco2)nc2cc(C(=O)N[C@@H](CC(=O)O)c3ccccc3)ccc21 | male Sprague-Dawley rat | intravenous, 1 mg/kg | clearance | 20.8 mL/min/kg |
